Assay results pooled from the literature.
Protocols differ between the studies behind these lines.
INSR: Insulin receptor (INSR, Homo sapiens, UniProt P06213)
Sequence of UniProt P06213 (whole entry, looked up): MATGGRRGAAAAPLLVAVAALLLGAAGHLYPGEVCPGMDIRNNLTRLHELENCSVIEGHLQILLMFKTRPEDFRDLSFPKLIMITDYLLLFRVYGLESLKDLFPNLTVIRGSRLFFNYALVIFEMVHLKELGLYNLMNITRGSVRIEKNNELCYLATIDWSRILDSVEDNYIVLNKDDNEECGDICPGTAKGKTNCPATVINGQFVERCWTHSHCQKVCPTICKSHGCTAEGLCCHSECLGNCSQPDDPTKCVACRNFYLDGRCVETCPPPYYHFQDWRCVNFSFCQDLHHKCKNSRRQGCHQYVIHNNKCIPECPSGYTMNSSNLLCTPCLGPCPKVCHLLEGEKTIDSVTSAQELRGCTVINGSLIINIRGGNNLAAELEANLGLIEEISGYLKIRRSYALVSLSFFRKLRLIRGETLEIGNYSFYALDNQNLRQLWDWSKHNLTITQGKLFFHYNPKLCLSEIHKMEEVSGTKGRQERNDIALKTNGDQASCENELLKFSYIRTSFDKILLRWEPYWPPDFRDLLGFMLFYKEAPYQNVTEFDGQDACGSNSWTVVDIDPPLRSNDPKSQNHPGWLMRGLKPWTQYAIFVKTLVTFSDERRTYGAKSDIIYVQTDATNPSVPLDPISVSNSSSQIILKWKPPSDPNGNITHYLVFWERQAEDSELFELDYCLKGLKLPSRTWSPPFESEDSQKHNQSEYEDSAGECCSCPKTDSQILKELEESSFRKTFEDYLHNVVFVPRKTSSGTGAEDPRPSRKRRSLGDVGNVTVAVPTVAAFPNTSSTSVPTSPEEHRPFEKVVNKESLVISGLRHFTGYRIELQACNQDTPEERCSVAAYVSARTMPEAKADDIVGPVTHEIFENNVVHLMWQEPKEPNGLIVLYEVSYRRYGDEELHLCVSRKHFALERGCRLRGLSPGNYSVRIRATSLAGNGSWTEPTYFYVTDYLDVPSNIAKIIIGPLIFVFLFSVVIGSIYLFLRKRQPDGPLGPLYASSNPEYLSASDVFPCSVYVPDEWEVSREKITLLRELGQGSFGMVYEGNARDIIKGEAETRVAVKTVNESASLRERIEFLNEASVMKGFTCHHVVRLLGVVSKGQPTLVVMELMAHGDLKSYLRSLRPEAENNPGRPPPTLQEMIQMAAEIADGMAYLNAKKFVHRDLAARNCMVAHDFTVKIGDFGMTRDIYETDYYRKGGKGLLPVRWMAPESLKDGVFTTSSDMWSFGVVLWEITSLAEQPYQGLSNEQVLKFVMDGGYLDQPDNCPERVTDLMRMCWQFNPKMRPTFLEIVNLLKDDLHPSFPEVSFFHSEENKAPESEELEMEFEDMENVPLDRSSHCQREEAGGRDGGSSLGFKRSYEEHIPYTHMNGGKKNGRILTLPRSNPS

SMILES | target | test | setting | scale | measurement | result
Cc1ccc2c(n1)c(-c1cccc(S(C)(=O)=O)c1)c(C)n2C/C(F)=C/CN | INSR | cell-free assay | 10 µM |  | inhibition | -11%
Nc1ccc(/C=C/C(=O)N2CCc3c(oc4c(-c5ccc(F)cc5)cc(-c5ccc(C(=O)N6CCC(F)(F)CC6)cn5)cc34)C2)cn1 | INSR | binding, competition with immobilised ligand | 1 µM |  | remaining binding | 77%
C[C@@H]1COCCN1c1nc(NCc2cccnc2C(F)(F)F)c2cccnc2n1 | INSR | binding | CEREP panel |  | IC50 | > 100 µM
O=C(O)c1ccccc1/C=N/Nc1nc(-c2ccccc2Cl)cs1 | INSR | enzyme activity, inhibitor | 1 µM |  | inhibition | -1.03%
CS(C)(=O)=Nc1ccc(-c2ccc(-c3nc4cc(O[C@@H]5CO[C@H]6[C@@H]5OC[C@H]6O)[nH]c4cc3F)cc2)cc1 | Insulin receptor, phosphorylated (INSR, Homo sapiens, UniProt P06213) | enzyme activity, inhibitor | 10 µM |  | inhibition | 9%
CN(/N=C/c1ccccc1C(=O)O)c1nc(-c2ccccc2Cl)cs1 | INSR | enzyme activity, inhibitor | 1 µM |  | inhibition | -12.1%
CCn1nc(Cl)c2c1-c1cnc(N)c(c1)O[C@H](C)c1cc(F)ccc1-c1nn(C)cc1C2 | INSR | kinase activity, inhibitor |  | reference: IC50 INSR over IC50 ALK | selectivity ratio | 67 fold
CC(C)[C@H]1NC(=O)C[C@H]2/C=C/CCSSC[C@@H](NC1=O)C(=O)N[C@H](Cc1cccc3ccccc13)C(=O)NCC(=O)O2 | INSR | enzyme activity, inhibitor | 10 µM |  | inhibition | -7%
C[C@H](NCc1ccc(-c2ccc(C(F)(F)F)cc2)cc1)C(N)=O | INSR | cell-free assay, competition with immobilised ligand | 1 µM |  | inhibition | 28%
N[C@H](C(=O)N1CCCC1)C1CCN(c2nccc3c(-c4ncc(Cl)cc4Cl)cccc23)CC1 | INSR | kinase activity, inhibitor | 10 µM, added: ATP 1 mM |  | inhibition | 12.2%
COc1ccc(F)cc1S(=O)(=O)Nc1cnc2c(c1)C(=O)NCCO2 | INSR | enzyme activity, inhibitor | 10 µM |  | inhibition | 0%
O=C1NC(=O)c2c1c1cc(F)c[n+]3c1c1c2c2cc(O)ccc2[n]1[Ru-4]312([N]=C=S)[S+]3CC[S+]1CC[S+]2CC3 (stereo not shown) | Insulin receptor, activated (INSR, Homo sapiens, UniProt P06213) | enzyme activity | 100 nM, human enzyme, added: 10 µM ATP | reference: untreated | remaining activity | 27%
CCOC(=O)[C@@H]1Cc2c(cc([N+](=O)[O-])cc2[N+](=O)[O-])[C@H](O)[C@]12C(=O)Nc1ccc(Br)cc12 | INSR | binding, competition with immobilised ligand | 0.1 µM |  | remaining binding | 77%
